Measurements pooled from the literature.
Protocols differ between the studies behind these lines. ± gives the spread as reported.

Structure (SMILES) = CN1CCN(S(=O)(=O)c2cc([N+](=O)[O-])ccc2N(CCOS(C)(=O)=O)CCOS(C)(=O)=O)CC1; cell line = 6 T-ALL PDX samples; effect on = cell viability; medium = ex vivo; time = 48 h; IC50 = 0.0286 µM
Structure (SMILES) = Fc1ccc2c(-c3nc(Cc4ccccc4)cs3)nn(Cc3ccc(Cl)cc3Cl)c2c1; cell line = BJ fibroblasts; effect on = cytotoxicity; time = 48 h; IC50 = 289 µM
Structure (SMILES) = O=C1[O][Pt]2([NH][C@@H]3CCCC[C@H]3[NH]2)[O]C1=O; cell line = CT26; effect on = cytotoxicity; method = MTT; time = 72 h; IC50 = 0.87 ± 0.02 µM
Structure (SMILES) = N.N.[Cl][Pt][Cl]; cell line = SGC-7901 resistant to compound; effect on = viability; method = CCK-8; setting = glutamine deficient; IC50 = 20.8 µM
Structure (SMILES) = COc1c(C)c2c(c(O)c1C/C=C(\C)CCC(=O)O)C(=O)OC2; cell line = SAOS-2; effect on = cell proliferation; medium = bone cancer; IC50 = 3.24 µM
Structure (SMILES) = CN[C@@H]1C[C@H]2O[C@@](C)([C@@H]1OC)n1c3ccccc3c3c4c(c5c6ccccc6n2c5c31)C(=O)NC4; cell line = Caco-2; IC50 = 5.07 µM
Structure (SMILES) = O=C(Oc1ccccc1)[c-]1cccc1.[Fe+2].c1cc[cH-]c1; cell line = MCF-10A; effect on = cell growth; method = MTT; time = 72 h; IC50 = no effect
Structure (SMILES) = Cc1cc(C)c(N2CCN(c3c(C)cc(C)cc3C)C2=[Se])c(C)c1; cell line = H157 lung carcinoma cells; effect on = cell viability; method = MTT; time = 72 h; IC50 = 8.2 ± 0.1 µM
Structure (SMILES) = N.N.[Cl][Pt][Cl]; cell line = MCF-10A; effect on = cell viability; time = 48 h; setting = light irradiation 2.5 min; IC50 = 35.6 ± 2.16 µM
Structure (SMILES) = CCCCCCCCCc1ccc(O)cc1; cell line = AC16 cardiomyocytes; effect on = mitochondrial membrane potential decrease; time = 1 h; IC50 = 4.35 ± 0.29 µM
Structure (SMILES) = C[C@H]1COCCN1c1nc(NCc2cccnc2C(F)(F)F)c2cccnc2n1; cell line = cardiomyocytes; effect on = calcium signalling; setting = in vitro toxicology; IC50 = > 100 µM
Structure (SMILES) = N=C(N)Nc1ccc(NC(=O)c2cc(C(F)(F)F)cc(C(F)(F)F)c2)cc1OCc1ccccc1C(F)(F)F; cell line = HEK293 cells; effect on = cell viability; time = 48 h; IC50 = > 500 µM

Repeated from above:
Structure (SMILES) = C[C@H]1COCCN1c1nc(NCc2cccnc2C(F)(F)F)c2cccnc2n1; cell line = cardiomyocytes; effect on = calcium signalling; setting = in vitro toxicology; IC50 = > 100 µM
Structure (SMILES) = N=C(N)Nc1ccc(NC(=O)c2cc(C(F)(F)F)cc(C(F)(F)F)c2)cc1OCc1ccccc1C(F)(F)F; cell line = HEK293 cells; effect on = cell viability; time = 48 h; IC50 = > 500 µM
